Experimental data of several laboratories.
Parts stem from different laboratories: compare values within a part only.

Series 1
Target: Sal-like protein 4, full length isoform B (SALL4, Homo sapiens, UniProt Q9UJQ4-2, residues 1-616)
Method: universal PBM
Form: double-stranded DNA, one strand shown
Sample: in vitro
Tested at: not given
Setting: 8-mer, flanks averaged, mean of replicates
Reading: higher = stronger binding
Endpoint: E-score
Construct (chain): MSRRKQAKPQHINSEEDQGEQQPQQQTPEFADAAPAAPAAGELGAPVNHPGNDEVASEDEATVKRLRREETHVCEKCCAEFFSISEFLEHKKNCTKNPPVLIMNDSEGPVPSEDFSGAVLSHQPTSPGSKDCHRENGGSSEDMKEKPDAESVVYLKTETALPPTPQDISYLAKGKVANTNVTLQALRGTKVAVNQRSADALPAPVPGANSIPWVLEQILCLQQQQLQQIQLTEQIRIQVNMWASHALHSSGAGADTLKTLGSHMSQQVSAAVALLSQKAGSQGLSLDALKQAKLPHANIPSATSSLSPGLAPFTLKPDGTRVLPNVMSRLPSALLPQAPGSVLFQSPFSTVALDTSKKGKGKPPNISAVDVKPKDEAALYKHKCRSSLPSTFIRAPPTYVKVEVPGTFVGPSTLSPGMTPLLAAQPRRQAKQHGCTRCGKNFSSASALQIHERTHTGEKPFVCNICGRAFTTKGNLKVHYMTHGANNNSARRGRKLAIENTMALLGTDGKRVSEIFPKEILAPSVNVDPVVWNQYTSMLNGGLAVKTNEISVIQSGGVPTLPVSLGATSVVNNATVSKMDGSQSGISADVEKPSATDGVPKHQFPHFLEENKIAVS
TAGTCCAA: -0.0457
CCCTCTCA: -0.195
ATCAAGAG: 0.151
TGGCCAAA: -0.0293
CGCCGATC: -0.161

Series 2
Target: Prothrombin, mature alpha-thrombin (F2, Homo sapiens, UniProt P00734)
Method: aptamer microarray, sandwich
Form: DNA with 2'F-ANA
Sample: in vitro
Tested at: 200 nM
Setting: whole 15-mer aptamer, many near background
With: Cy3 exosite-II aptamer, 400 nM
Reading: higher = stronger binding
Endpoint: mean fluorescence intensity
GGTTGGTGTGGTTGG (2'F-ANA at 2 4 5 6 8 9 10 12 13): 50.6 a.u.
GGTTGGTGTGGTTGG (2'F-ANA at 1 3 4 5 8 9 10 14 15): 47.8 a.u.
GGTTGGTGTGGTTGG (2'F-ANA at 1 2 5 6 7 8 9 10 13 14): 55.8 a.u.
GGTTGGTGTGGTTGG (2'F-ANA at 1 2 4 7 8 10 12): 58.8 a.u.

Series 3
Target: Histone acetyltransferase KAT6A, winged helix 1, GST fusion (KAT6A, Homo sapiens, UniProt Q92794, residues 1-85)
Method: protein binding microarray
Form: double-stranded DNA, one strand shown
Sample: in vitro
Tested at: not given
Setting: 8-mer, flanks averaged, mean of 2 arrays, mostly near background
Baseline: not given
Reading: higher = stronger binding
Endpoint: E-score
Construct (chain): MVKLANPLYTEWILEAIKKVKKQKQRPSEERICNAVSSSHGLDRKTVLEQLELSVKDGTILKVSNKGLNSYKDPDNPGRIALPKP
AAAGAATG: -0.198
AACGAAAC: -0.0665
CATTCTGA: -0.18
CGAACGAC: -0.0838
GACTCCGC: 0.257
CCTGGGGA: -0.26

Further values, each from its own experiment
PhoQ, residues 284 288 289 292 302 303 TLSLKA  fold induction (PhoP, residues 12 14 15 18 19 GMGLL (Escherichia coli, UniProt P23836); Sort-seq, item: YFP reporter; E. coli; PhoQ-PhoP variant library, with: 10 µM Mg2+; baseline: high Mg2+ state, higher = stronger signaling): 1.19

A few entries again (series 2):
GGTTGGTGTGGTTGG (2'F-ANA at 1 3 4 5 8 9 10 14 15): 47.8 a.u.
GGTTGGTGTGGTTGG (2'F-ANA at 1 2 5 6 7 8 9 10 13 14): 55.8 a.u.
GGTTGGTGTGGTTGG (2'F-ANA at 1 2 4 7 8 10 12): 58.8 a.u.
